Assay results collected from several papers.
Lines come from different studies, so protocols differ.
Chain of UniProt O43781 (whole entry, looked up): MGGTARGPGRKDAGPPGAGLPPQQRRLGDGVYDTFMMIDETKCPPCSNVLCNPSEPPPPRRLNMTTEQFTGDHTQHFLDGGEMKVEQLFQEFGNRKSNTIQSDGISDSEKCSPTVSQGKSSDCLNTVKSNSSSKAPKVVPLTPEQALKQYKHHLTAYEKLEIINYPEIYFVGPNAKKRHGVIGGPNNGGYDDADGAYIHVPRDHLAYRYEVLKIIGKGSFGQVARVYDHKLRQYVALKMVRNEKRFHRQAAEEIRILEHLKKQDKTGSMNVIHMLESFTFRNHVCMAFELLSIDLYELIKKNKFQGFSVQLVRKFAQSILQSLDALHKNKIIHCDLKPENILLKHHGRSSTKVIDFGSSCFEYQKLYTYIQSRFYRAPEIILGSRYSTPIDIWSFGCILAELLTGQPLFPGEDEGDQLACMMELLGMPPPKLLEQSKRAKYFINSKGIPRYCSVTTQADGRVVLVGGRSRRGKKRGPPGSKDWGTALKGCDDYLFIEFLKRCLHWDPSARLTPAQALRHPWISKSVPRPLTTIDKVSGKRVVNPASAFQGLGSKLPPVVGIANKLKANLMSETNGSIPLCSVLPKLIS
Chain of UniProt P00519 (whole entry, looked up): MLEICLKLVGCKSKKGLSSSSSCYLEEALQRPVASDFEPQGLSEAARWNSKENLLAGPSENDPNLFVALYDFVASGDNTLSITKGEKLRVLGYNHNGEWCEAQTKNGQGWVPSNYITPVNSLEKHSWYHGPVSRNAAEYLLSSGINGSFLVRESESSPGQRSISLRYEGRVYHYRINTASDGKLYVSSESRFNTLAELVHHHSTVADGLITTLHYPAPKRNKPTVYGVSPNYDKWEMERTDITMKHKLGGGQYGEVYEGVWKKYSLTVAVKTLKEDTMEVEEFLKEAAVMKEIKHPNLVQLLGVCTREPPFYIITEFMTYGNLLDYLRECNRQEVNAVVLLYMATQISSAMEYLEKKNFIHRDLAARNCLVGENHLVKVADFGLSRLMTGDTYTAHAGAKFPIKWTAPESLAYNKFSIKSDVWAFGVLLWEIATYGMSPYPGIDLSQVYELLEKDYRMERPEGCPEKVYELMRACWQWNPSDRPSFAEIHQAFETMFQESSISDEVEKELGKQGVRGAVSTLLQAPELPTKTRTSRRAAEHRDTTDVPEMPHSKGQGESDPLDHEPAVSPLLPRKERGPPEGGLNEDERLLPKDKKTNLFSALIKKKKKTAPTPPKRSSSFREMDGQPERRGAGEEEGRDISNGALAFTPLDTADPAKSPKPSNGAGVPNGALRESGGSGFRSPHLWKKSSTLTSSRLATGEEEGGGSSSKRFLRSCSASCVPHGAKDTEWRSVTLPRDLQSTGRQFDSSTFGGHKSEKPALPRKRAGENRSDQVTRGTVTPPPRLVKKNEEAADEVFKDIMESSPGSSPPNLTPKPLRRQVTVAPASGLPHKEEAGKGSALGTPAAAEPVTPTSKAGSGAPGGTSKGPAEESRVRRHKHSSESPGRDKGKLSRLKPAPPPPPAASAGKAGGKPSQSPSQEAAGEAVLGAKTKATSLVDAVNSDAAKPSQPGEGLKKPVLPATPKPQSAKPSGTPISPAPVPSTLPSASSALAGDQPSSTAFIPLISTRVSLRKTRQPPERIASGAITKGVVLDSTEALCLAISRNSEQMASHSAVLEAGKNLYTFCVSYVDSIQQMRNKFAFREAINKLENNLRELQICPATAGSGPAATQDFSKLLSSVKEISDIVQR
Chain of UniProt P42681 (whole entry, looked up): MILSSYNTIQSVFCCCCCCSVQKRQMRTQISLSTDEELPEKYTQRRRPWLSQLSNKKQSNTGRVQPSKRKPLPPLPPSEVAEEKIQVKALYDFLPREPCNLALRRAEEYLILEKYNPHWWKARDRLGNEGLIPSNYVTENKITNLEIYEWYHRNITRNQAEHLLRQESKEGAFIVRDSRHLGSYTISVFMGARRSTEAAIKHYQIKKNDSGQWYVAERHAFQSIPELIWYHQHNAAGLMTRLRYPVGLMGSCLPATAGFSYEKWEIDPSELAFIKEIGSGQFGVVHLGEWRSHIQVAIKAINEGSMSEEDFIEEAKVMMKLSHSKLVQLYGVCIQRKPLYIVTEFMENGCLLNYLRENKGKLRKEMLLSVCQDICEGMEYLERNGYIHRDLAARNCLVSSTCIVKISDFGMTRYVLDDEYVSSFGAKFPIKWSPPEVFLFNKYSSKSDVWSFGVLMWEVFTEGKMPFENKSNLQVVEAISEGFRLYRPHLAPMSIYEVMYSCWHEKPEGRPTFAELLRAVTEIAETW
Chain of UniProt P27361 (whole entry, looked up): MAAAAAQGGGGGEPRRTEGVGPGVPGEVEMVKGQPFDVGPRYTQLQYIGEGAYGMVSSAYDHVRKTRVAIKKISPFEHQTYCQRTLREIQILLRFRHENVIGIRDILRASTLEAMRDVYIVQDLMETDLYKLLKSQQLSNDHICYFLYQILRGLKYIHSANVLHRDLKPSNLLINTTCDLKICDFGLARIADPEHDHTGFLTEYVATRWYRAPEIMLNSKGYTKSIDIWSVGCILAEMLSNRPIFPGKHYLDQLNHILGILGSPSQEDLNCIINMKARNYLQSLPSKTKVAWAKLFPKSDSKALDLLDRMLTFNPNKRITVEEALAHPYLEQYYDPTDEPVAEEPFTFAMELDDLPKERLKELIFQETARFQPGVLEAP

`CNc1ncc2c(/C=C/C(=O)N3CCC(OC)CC3)nn(Cc3cccc(C(F)(F)F)c3)c2n1` gave a remaining activity of 115% (DYRK3 (Homo sapiens, UniProt O43781); enzyme activity, inhibitor, radiometric; 1 µM).
For `Cc1cc([C@@H](C)Nc2ccccc2C(=O)O)c2nc(N3CCC(F)(F)CC3)c(C#N)c(=O)n2c1`, the remaining binding was 100% (MAPK3 (Homo sapiens, UniProt P27361); binding, competition with immobilised ligand; 10 µM).
The remaining activity of `COc1cc(-c2cncc3c2CN(C)Cc2cc(N4CCNCC4)ccc2-3)cc(OC)c1OC` is reported as 107% (TXK (Homo sapiens, UniProt P42681); enzyme activity, inhibitor; 1 µM).
The remaining binding of `C=CC(=O)N1CCC(COCC(=O)N2CCN(c3nc(-c4cnc(N)nc4C(F)F)nc(N4CCOC[C@@H]4C)n3)CC2)CC1` is reported as 100% (Tyrosine-protein kinase ABL1, non-phosphorylated (ABL1, Homo sapiens, UniProt P00519); binding, competition with immobilised ligand; 1 µM).

For quick reference, copied from above:
The remaining activity of `COc1cc(-c2cncc3c2CN(C)Cc2cc(N4CCNCC4)ccc2-3)cc(OC)c1OC` is reported as 107% (TXK (Homo sapiens, UniProt P42681); enzyme activity, inhibitor; 1 µM).
